Experimental data pooled from the literature.
Numbered parts are unrelated; each lists some results of a single study. “And” joins repeats or separate records; there may be more than shown.
Sequence of UniProt P35368 (whole entry, looked up): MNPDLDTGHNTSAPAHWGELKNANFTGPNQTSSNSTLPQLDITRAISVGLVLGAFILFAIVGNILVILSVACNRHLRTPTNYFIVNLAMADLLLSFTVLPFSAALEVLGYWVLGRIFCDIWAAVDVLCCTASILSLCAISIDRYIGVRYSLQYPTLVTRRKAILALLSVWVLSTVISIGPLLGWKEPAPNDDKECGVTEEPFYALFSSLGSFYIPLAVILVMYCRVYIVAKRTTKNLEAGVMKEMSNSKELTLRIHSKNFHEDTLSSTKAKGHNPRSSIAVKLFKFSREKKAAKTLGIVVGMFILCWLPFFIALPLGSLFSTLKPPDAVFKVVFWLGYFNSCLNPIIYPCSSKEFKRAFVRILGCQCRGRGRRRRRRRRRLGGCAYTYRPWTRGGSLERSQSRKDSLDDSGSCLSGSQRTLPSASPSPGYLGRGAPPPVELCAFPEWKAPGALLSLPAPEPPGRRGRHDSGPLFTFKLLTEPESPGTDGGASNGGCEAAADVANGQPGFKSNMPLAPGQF
Sequence of UniProt P08173 (whole entry, looked up): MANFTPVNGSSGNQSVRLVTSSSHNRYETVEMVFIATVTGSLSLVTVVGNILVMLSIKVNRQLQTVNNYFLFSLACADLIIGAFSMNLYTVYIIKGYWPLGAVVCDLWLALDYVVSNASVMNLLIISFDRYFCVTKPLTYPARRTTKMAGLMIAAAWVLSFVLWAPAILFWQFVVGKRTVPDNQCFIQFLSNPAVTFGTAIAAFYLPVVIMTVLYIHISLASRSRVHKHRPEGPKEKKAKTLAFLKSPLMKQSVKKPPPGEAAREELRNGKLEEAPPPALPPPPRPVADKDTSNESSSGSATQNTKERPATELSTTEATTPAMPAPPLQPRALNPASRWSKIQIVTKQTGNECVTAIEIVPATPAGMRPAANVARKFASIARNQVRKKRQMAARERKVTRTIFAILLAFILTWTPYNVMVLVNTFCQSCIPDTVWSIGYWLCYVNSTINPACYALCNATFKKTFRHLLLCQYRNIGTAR
Sequence of UniProt P28222 (whole entry, looked up): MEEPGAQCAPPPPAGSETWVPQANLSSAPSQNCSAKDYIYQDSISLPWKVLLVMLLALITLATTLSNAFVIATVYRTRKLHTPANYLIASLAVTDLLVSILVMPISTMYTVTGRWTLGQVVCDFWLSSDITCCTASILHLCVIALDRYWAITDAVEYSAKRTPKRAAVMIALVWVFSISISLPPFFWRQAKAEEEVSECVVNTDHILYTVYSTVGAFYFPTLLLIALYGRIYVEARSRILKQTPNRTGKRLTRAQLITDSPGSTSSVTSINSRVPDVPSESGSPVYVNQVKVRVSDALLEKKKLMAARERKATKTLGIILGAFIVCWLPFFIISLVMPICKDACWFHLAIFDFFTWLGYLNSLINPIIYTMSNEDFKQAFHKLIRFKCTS
Sequence of UniProt P35367 (whole entry, looked up): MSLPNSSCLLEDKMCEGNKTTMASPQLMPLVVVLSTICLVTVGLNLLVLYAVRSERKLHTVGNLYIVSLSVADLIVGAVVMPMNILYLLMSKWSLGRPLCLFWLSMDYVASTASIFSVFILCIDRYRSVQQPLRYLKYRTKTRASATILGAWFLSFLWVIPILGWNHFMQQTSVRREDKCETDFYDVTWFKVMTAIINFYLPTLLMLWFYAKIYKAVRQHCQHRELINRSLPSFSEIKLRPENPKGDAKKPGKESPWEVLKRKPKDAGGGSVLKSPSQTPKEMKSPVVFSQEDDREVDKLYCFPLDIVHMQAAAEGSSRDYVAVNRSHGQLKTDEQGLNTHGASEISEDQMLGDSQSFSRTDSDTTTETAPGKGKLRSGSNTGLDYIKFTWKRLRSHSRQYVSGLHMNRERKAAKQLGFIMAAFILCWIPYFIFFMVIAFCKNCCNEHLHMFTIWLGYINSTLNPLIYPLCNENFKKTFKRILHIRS
Sequence of UniProt P50406 (whole entry, looked up): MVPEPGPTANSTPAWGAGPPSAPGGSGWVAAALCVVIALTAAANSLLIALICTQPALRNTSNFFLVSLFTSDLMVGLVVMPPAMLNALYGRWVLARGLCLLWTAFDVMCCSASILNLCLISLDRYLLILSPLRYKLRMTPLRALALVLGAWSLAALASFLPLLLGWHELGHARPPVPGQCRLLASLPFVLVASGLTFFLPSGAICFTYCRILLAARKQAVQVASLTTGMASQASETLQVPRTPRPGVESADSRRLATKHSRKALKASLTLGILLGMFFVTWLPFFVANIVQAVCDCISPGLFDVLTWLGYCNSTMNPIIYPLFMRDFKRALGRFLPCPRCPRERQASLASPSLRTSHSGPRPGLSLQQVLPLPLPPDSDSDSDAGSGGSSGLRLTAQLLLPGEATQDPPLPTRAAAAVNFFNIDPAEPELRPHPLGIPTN
Sequence of UniProt P21917 (whole entry, looked up): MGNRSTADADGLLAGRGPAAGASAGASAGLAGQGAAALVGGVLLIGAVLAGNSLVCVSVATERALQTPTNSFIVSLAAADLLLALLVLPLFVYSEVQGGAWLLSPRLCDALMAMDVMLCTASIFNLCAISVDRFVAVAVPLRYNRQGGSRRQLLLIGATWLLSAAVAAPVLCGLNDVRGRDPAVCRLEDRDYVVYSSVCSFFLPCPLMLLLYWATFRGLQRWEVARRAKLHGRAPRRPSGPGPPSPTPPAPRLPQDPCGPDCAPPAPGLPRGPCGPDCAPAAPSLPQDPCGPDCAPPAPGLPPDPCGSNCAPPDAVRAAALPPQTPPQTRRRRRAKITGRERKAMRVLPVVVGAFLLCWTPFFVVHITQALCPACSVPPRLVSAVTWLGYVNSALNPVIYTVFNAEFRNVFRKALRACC
Sequence of UniProt P07550 (whole entry, looked up): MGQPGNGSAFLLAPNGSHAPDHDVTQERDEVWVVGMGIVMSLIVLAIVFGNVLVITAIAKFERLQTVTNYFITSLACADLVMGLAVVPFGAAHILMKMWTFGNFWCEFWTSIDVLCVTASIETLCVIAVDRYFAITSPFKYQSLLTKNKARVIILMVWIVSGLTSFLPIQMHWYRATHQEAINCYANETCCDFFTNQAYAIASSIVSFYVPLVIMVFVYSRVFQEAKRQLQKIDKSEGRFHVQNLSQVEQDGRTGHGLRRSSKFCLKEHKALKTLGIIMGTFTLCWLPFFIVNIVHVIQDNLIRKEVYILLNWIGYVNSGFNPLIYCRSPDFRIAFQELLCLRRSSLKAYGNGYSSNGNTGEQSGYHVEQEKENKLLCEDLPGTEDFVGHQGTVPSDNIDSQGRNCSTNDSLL
Sequence of UniProt P08912 (whole entry, looked up): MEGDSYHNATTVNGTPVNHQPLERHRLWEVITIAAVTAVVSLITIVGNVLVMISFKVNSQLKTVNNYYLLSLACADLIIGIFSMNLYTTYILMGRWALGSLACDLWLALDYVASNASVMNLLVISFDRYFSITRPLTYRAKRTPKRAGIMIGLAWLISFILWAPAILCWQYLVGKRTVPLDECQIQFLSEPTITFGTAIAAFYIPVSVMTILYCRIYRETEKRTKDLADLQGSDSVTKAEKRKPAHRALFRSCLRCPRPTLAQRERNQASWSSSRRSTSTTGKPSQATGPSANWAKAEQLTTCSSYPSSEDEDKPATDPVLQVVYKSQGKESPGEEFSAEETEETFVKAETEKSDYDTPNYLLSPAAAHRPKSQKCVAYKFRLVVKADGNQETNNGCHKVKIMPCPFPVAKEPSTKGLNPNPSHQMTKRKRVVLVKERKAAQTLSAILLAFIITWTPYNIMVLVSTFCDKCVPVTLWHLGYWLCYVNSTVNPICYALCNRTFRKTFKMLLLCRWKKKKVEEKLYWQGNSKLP
Sequence of UniProt Q5BJF2 (whole entry, looked up): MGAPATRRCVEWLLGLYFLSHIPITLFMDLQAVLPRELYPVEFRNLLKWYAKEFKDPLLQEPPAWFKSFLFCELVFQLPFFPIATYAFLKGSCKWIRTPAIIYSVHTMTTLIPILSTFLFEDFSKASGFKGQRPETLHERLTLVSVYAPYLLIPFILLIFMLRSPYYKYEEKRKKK

Series 1
Target: Focal adhesion kinase 1 (PTK2, Homo sapiens, UniProt Q05397)
Sequence of UniProt Q05397 (whole entry, looked up): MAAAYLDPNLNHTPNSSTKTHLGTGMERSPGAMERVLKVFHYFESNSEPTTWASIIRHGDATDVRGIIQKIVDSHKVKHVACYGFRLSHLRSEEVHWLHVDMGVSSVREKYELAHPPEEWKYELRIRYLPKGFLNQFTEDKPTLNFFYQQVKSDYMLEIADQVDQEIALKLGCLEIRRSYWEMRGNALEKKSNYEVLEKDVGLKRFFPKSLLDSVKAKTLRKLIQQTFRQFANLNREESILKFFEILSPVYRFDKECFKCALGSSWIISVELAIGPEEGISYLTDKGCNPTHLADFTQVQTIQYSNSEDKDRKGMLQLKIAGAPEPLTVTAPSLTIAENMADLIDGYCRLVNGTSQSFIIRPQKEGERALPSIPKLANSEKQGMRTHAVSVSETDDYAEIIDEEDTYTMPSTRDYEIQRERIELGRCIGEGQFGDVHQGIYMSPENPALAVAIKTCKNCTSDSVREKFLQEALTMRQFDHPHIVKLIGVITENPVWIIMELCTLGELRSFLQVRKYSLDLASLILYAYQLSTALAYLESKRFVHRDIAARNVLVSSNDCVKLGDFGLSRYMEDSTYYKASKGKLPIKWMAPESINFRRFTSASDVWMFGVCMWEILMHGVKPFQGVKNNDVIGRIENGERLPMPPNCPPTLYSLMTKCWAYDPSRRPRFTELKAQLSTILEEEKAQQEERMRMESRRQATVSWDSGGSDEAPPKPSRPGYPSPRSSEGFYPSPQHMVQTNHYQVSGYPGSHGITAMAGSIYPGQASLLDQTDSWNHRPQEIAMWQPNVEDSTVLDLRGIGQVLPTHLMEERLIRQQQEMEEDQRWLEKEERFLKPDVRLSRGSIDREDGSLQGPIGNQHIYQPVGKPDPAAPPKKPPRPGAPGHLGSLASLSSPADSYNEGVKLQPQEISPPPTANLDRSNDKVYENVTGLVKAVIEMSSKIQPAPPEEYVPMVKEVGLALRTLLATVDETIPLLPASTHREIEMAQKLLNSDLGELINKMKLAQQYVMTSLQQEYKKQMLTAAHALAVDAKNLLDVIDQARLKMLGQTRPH
Effect on: enzyme activity
Mode: inhibitor
Tested at: 0.5 µM
Baseline: control
Quantity: remaining activity
Cc1cncc2cccc(S(=O)(=O)N3CCCN(C(=O)CN)C[C@@H]3C)c12: 78%
Oc1ccc(Nc2nc(-c3ccc(Cl)cc3)cs2)cc1: 99.4%
Cc1cc(Nc2nc(-c3ccccc3)nc3ccccc23)n[nH]1: 59.9%
NC(=O)c1ccc(N(C(N)=O)c2c(F)cccc2F)nc1-c1ccc(F)cc1F: 98.9%
Fc1ccc(-c2nc3n(c2-c2ccncc2)CCS3)cc1: 102%
O=C1NC(=O)C(c2c[nH]c3ccccc23)=C1c1c[nH]c2ccccc12: 101%
Cc1ccc(NC2=CC(=O)c3sc(C)nc3C2=O)cc1: 102%
CSc1nc(-c2ccnc(N[C@@H](C)c3ccccc3)c2)c(-c2ccc(F)cc2)[nH]1 (racemic): 99.1%
CC(C)(C)n1nc(Cc2cccc3ccccc23)c2c(N)ncnc21: 96.3%
CC[n+]1c(/C=C/N(C)c2ccccc2)n(-c2ccccc2)c2ccc(-c3nc4ccccc4s3)cc21: 108%
O=S(=O)(NCCNC/C=C/c1ccc(Br)cc1)c1cccc2cnccc12: 64.1%
CC(=O)c1ccc(N2CCOCC2)cc1O: 107%
COc1ccc(S(=O)(=O)N(CCO)c2ccccc2CN(C)CC=Cc2ccc(Cl)cc2)cc1: 104%
COc1cc(Nc2c(C#N)cnc3cc(OCCCN4CCN(C)CC4)c(OC)cc23)c(Cl)cc1Cl: 96%
O=C1Cc2c([nH]c3ccc([N+](=O)[O-])cc23)-c2ccccc2N1: 88.1%
N#CC(=C(N)Sc1ccc(N)cc1)c1ccccc1C(F)(F)F: 101%
Nc1ncnc2c1cnn2-c1ccccc1: 94.9%
CCCC(=O)Oc1ccc2[nH]c(C(=O)c3cc4ccccc4[nH]3)cc2c1: 94.1%
Nc1nccc(-c2c(-c3ccc(F)cc3)ncn2C2CCNCC2)n1: 94.1%
CC#CC(=O)Nc1cc2c(Nc3ccc(F)c(Cl)c3)ncnc2cn1: 102%
CCc1[nH]c(-c2ccc(OC)cc2)nc1-c1ccncc1: 101%

Series 2
Compound: O=C(NNS(=O)(=O)c1ccccc1F)c1cc(F)cc(-c2ccccn2)c1
Tested at: 10 µM
Quantity: inhibition
ADRA2C (Homo sapiens, UniProt P18825); cell-free assay: 10.2%
ADRA1A (Homo sapiens, UniProt P35348); cell-free assay: 9.59%
HTR6 (Homo sapiens, UniProt P50406); cell-free assay: -20.2%
DRD1 (Homo sapiens, UniProt P21728); cell-free assay: -3.67%
DRD3 (Homo sapiens, UniProt P35462); cell-free assay: 4.97%
CHRM5 (Homo sapiens, UniProt P08912); cell-free assay: -8.87%
ADRB3 (Homo sapiens, UniProt P13945); cell-free assay: 16.3%
HTR7 (Homo sapiens, UniProt P34969); cell-free assay: -3.75%
DRD2 (Homo sapiens, UniProt P14416); cell-free assay: 79.6%
CHRM4 (Homo sapiens, UniProt P08173); cell-free assay: 20.4%
HRH1 (Homo sapiens, UniProt P35367); cell-free assay: -8.33%
ADRA1D (Homo sapiens, UniProt P25100); cell-free assay: 3.2%
HRH2 (Homo sapiens, UniProt P25021); cell-free assay: 5.32%
HRH3 (Homo sapiens, UniProt Q9Y5N1); cell-free assay: -20.5%
HTR1B (Homo sapiens, UniProt P28222); ligand displacement: 13.6%
SIGMAR1 (Homo sapiens, UniProt Q99720); cell-free assay: 35.7%
TMEM97 (Homo sapiens, UniProt Q5BJF2); cell-free assay: 19.9%
ADRA2A (Homo sapiens, UniProt P08913); cell-free assay: -14.9%
DRD4 (Homo sapiens, UniProt P21917); cell-free assay: 23.8%
ADRB2 (Homo sapiens, UniProt P07550); cell-free assay: 13.2%
ADRA1B (Homo sapiens, UniProt P35368); cell-free assay: 7.18%
HRH4 (Homo sapiens, UniProt Q9H3N8); cell-free assay: -2.44%

Series 3
SMILES: COc1cc(C(=O)N2CCC(N3CCN(C)CC3)CC2)ccc1Nc1ncc2c(n1)N(C)c1ccccc1C(=O)N2C
Quantity: inhibition
MST3 (mouse); KiNativ ADP probe; mouse brain tissue; 0.1 µM, probe site LYS1: -20.3%
RSK2 domain 1 (mouse); probe labelling, inhibitor, KiNativ ActivX ATP probe; mouse brain lysate; 0.1 µM, activation loop peptide: 1%
EGFR (mouse); probe labelling, KiNativ, measured: IPVAIkELR peptide, LYS1 site; brain tissue lysate (mouse); 1 µM, added: ATP acyl-phosphate probe: -14.5%
MAP3K2 (human); probe labelling, KiNativ ATP probe; human PBMC lysate; concentration not given, LYS1 labelled site: -1.9%
NEK4 (mouse); probe labelling, KiNativ, measured: DLkTQNVFLTR peptide, LYS2 site; brain tissue lysate (mouse); 1 µM, added: ATP acyl-phosphate probe: -27.9%
TNIK (human); probe labelling, KiNativ, measured: Lys1 site peptide; PBMC lysate (human); 1 µM, added: ATP acyl-phosphate probe: 6.1%
human PBMC; probe labeling, inhibitor, KiNativ profiling; cell lysate; concentration not given, domain 2, LYS1 site, added: ADP acyl-phosphate probe 0.1 µM: 2.7%
MARK3 and MARK4 (mouse); probe labelling, KiNativ, measured: EVAIkIIDK peptide, LYS1 site; brain tissue lysate (mouse); 1 µM, added: ATP acyl-phosphate probe: -12.2%
KHS1; 1 µM: 18.4%
NEK1 (mouse); probe labelling, KiNativ, measured: DIkSQNIFLTK peptide, LYS2 site; brain tissue lysate (mouse); 0.1 µM, added: ADP acyl-phosphate probe: -11.5%
ATR (mouse); probe labelling, KiNativ, measured: FYIMMCkPK peptide, ATP site; brain tissue lysate (mouse); 0.1 µM, added: ADP acyl-phosphate probe: 12.5%
SLK mouse; KiNativ profiling; mouse brain lysate; 0.1 µM, LYS2 site, added: ATP acyl phosphate probe: 16.1%
CSK mouse; KiNativ profiling; mouse brain lysate; 0.1 µM, activation loop site, added: ADP acyl phosphate probe: 2.6%

Series 4
Cell line: mouse MPNST tumor cells
Technique: high-content immunofluorescence imaging
Measured: nuclear SOX9
Tested at: 10 µM
Time: 12 h
Setting: mean of 2 replicates
Baseline: DMSO control
Direction: higher = more nuclear SOX9
Quantity: nuclear SOX9 intensity
CC(=O)O[C@]1(C(C)=O)CC[C@H]2[C@@H]3CCC4=CC(=O)CCC4=C3[C@@H](c3ccc(N(C)C)cc3)C[C@@]21C: 115 % of DMSO
CCN(CC)CCNC(=O)c1c(C)[nH]c(/C=C2\C(=O)Nc3ccc(F)cc32)c1C: 234 % of DMSO
Cc1ncc(CO)c(CO)c1O: 95.9 % of DMSO
O=C(Nc1c(-c2cccs2)nc2ccccn12)c1ccc(Cl)cc1: 99.4 % of DMSO
COc1ccc2[nH]c([S+]([O-])Cc3ncc(C)c(OC)c3C)nc2c1 (stereo not drawn): 107 % of DMSO
Cc1cc(-c2ccccc2)nnc1NCCN1CCOCC1: 100 % of DMSO
COc1ccccc1OCCNCC(O)COc1cccc2[nH]c3ccccc3c12 (stereo not drawn): 188 % of DMSO
Cc1c(C(N)=O)nn(-c2ccc(Cl)cc2Cl)c1-c1ccc(Cl)cc1: 108 % of DMSO
COCCOCc1ccc(-c2cc3onc(-c4ccccc4)c3c(=O)n2C)cc1: 104 % of DMSO
O=C(Oc1cccc2cccnc12)c1ccccc1: 94.6 % of DMSO
CC(=O)Nc1nnc(S(N)(=O)=O)s1: 96.4 % of DMSO and 116 % of DMSO and 94 % of DMSO
O=C(O)c1ccc(-c2ccc3cc(O)c(C45CC6CC(CC(C6)C4)C5)cc3c2)cc1: 113 % of DMSO
CC12CC3CC(C)(C1)CC(N)(C3)C2: 102 % of DMSO and 108 % of DMSO
